Measurements from different studies.
Lines come from different studies, so protocols differ. ± gives the spread as reported.
Technique: steady-state kinetics
B1: ycjQ (Escherichia coli, UniProt P76043); chain MKKLVATAPRVAALVEYEDRAILANEVKIRVRFGAPKHGTEVVDFRAASPFIDEDFNGEWQMFTPRPADAPRGIEFGKFQLGNMVVGDIIECGSDVTDYAVGDSVCGYGPLSETVIINAVNNYKLRKMPQGSSWKNAVCYDPAQFAMSGVRDANVRVGDFVVVVGLGAIGQIAIQLAKRAGASVVIGVDPIAHRCDIARRHGADFCLNPIGTDVGKEIKTLTGKQGADVIIETSGYADALQSALRGLAYGGTISYVAFAKPFAEGFNLGREAHFNNAKIVFSRACSEPNPDYPRWSRKRIEETCWELLMNGYLNCEDLIDPVVTFANSPESYMQYVDQHPEQSIKMGVTF
B2: enzyme (Triticum aestivum, UniProt A0A6J4BJN3); chain MPATENAAGEAWDRRRELQAFDDTKAGVKGLVDAGVTALPPIFRHSPESLEGITSSNHDAAAIPTVDLSAARREDTVALVRRAAATVGFFQVVNHGVPAELMAGMLEAVRRFNEGPAEAKQAIYSRDQARKVRFASNFDLFSSAAANWRDTLFFHLAPDPAPSQDLPEAVRDVVTEYGKAVTKVALSVLELLSESLGLSSDHLRDMGCAENLNAVCQYYPPCPEPYLTWGTKRHTDPGFLTVLLQDGMGGLQVLVDRKTWVDVPPVPGAFIINIGDLLQLVSNDQFRSVEHRVLANKSKDTARVSVASFFNTDMERSTRLYGPITDGRNPPIYRSVTARDFIATFNRIGLDGRSLDHYRLDQDTPAHAVEGSE
B3: GTPBP3 N259A (Homo sapiens, UniProt Q969Y2); chain TRRSSGAPAPGSGATIFALSSGQGRCGIAVIRTSGPASGHALRILTAPRDLPLARHASLRLLSDPRSGEPLDRALVLWFPGPQSFTGEDCVEFHVHGGPAVVSGVLQALGSVPGLRPAEAGEFTRRAFANGKLNLTEVEGLADLIHAETEAQRRQALRQLDGELGHLCRGWAETLTKALAHVEAYIDFGEDDNLEEGVLEQADIEVRALQVALGAHLRDARRGQRLRSGVHVVVTGPPAAGKSSLVNLLSRKPVSIVSPEPGTTRDVLETPVDLAGFPVLLSDTAGLREGVGPVEQEGVRRARERLEQADLILAMLDASDLASPSSCNFLATVVASVGAQSPSDSSQRLLLVLNKSDLLSPEGPGPGPDLPPHLLLSCLTGEGLDGLLEALRKELAAVCGDPSTDPPLLTRARHQHHLQGCLDALGHYKQSKDLALAAEALRVARGHLTRLTGGGGTEEILDIIFQDFCVGK
B4: enzyme (Arabidopsis thaliana, UniProt Q9STE6); chain MEKNAEKKRIVLVPFPLQGHITPMMQLGQALNLKGFSITVALGDSNRVSSTQHFPGFQFVTIPETIPLSQHEALGVVEFVVTLNKTSETSFKDCIAHLLLQHGNDIACIIYDELMYFSEATAKDLRIPSVIFTTGSATNHVCSCILSKLNAEKFLIDMKDPEVQNMVVENLHPLKYKDLPTSGMGPLERFLEICAEVVNKRTASAVIINTSSCLESSSLSWLKQELSIPVYPLGPLHITTSANFSLLEEDRSCIEWLNKQKLRSVIYISVGSIAHMETKEVLEMAWGLYNSNQPFLWVIRPGTESMPVEVSKIVSERGCIVKWAPQNEVLVHPAVGGFWSHCGWNSTLESIVEGVPMICRPFNGEQKLNAMYIESVWRVGVLLQGEVERGCVERAVKRLIVDDEGVGMRERALVLKEKLNASVRSGGSSYNALDELVHYLEAEYRNT
B5: enzyme P89H (Thermobifida fusca, UniProt Q47RA9); chain MIMIMASKSSPHDLPDVSGLSIAVLGGTGDQGRGLARRFAMAGHEVILGSRSAERAQAVAAELGEGLPVRGMDNAGAAEAGDVVIVAVHWDGHRALLESLKDVLAGKIVVDCVNPLGFDKRGAYALPVEEGSAAEQAAAILPDSRVVAAFHHVSAVLLLDPEVEKVDLDVLVLGDDREATDVVRALAARIPGVRGVYGGRLRNAHQVEAFTANLISINRRYKAHAGIRITDI
B6: pol D141A/E143A (Thermococcus kodakarensis, UniProt P77933); chain 1 MILDTDYITEDGKPVIRIFKKENGEFKIEYDRTFEPYFYALLKDDSAIEEVKKITAERHGTVVTVKRVEKVQKKFLGRPVEVWKLYFTHPQDVPAIRDKIREHPAVIDIYEYDIPFAKRYLIDKGLVPMEGDEELKMLAFAIATLYHEGEEFAEGPILMISYADEEGARVITWKNVDLPYVDVVSTEREMIKRFLRVVKEKDPDVLITYNGDNFDFAYLKKRCEKLGINFALGRDGSEPKIQRMGDRFAVEVKGRIHFDLYPVIRRTINLPTYTLEAVYEAVFGQPKEKVYAEEITTAWETGENLERVARYSMEDAKVTYELGKEFLPMEAQLSRLIGQSLWDVSRSSTGNLVEWFLLRKAYERNELAPNKPDEKELARRRQSYEGGYVKEPERGLWENIVYLDFR; chain 2 SLYPSIIITHNVSPDTLNREGCKEYDVAPQVGHRFCKDFPGFIPSLLGDLLEERQKIKKKMKATIDPIERKLLDYRQRAIKILAN; chain 3 NSYYGYYGYARARWYCKECAESVTAWGREYITMTIKEIEEKYGFKVIYSDTDGFFATIPGADAETVKKKAMEFLKYINAKLPGALELEYEGFYKRGFFVTKKKYAVIDEEGKITTRGLEIVRRDWSEIAKETQARVLEALLKDGDVEKAVRIVKEVTEKLSKYEVPPEKLVIHEQITRDLKDYKATGPHVAVAKRLAARGVKIRPGTVISYIVLKGSGRIGDRAIPFDEFDPTKHKYDAEYYIENQVLPAVERILRAFGYRKEDLRYQKTRQVGLSAWLKPKGT
B7: enzyme (Helicobacter pylori, UniProt O24890); chain MKRMLAEFEKIQAILMAFPHEFSDWAYCIKEARESFLNIIQTIAKHAKVLVCVHTNDIIGYETLKNLPGVEIARIDTNDTWARDFGAISVENHGVLECLDFGFNGWGLKYPSNLDNQVNFKLKSLGFLKHPLKTMPYILEGGSIESDGAGSVLTNTQCLLEKNRNPHLNQNGIENMLKKELGAKQVLWYSYGYLKGDDTDSHTDTLARFLDKDTIVYSTCEDENDEHYTALKKMQEELKTFKKLDGTPYKLIPLEIPKAIFDENQQRLPATYVNFLLCNNALIVPTYNDPKDALILETLKQHTPLEVIGVDCNTLIKQHGSLHCVTMQLY
B8: protein (Rheum palmatum, UniProt A0A7L9A2S6); chain MKKTELVFLPAPAPGHLVSTVEFSKRLIARDARLTVTILVISSPFSRGAQTNPSPGIRYVTLPQVDVPQHLMKDSIEHTISVYIASHAPHVRDAVAALQTESTVHVAGLFLDMFCTPMIDVANELGLPSYVFFCSSAGFLGLLLHLPVHSQPRFDETGLDVLIPSFQNPVPTRVLPRFGFNELGYKSFMDHAKRFGETKGIIINTYAELEPYALKSLLDAYDTAPVYAVGPVLDLRSQVHMPCDAAERARIMGWLDKQPDSSVVFLCFGSGGSFSEHQIREISKGLSQSGQRFLWSVRKPPTGGLVKPTEYTETELRSVLGDEFWSLLDEGERGVVCGWAPQVEVLGHKSVGAFVSHCGWNSTLESLWFGKPMVTWPLYAEQQMNAFELVKELGIAVELTLDYRLHSSEVVEAREVERAVRRVMDENNPVRYKVKEMAEVCRATLVEGGSSFVCVDRLISGFLGEIN
B9: cyc1 V329A (Streptomyces coelicolor, UniProt Q9K499); chain MHAFPHGTTATPTAIAVPPSLRLPVIEAAFPRQLHPYWPKLQETTRTWLLEKRLMPADKVEEYADGLCYTDLMAGYYLGAPDEVLQAIADYSAWFFVWDDRHDRDIVHGRAGAWRRLRGLLHTALDSPGDHLHHEDTLVAGFADSVRRLYAFLPATWNARFARHFHTVIEAYDREFHNRTRGIVPGVEEYLELRRLTFAHWIWTDLLEPSSGCELPDAVRKHPAYRRAALLSQEFAAWYNDLCSLPKEIAGDEVHNLGISLITHHSLTLEEAIGEVRRRVEECITEFLAVERDALRFADELADGTVRGKELSGAVRANVGNMRNWFSSAYWFHHESGRYMVDSWDDRSTPPYVNNEAAGEK
B10: tsaM1 F253S/H255G/M230N/R216A/S234V/S257H/T232I/Y220I (Comamonas testosteroni, UniProt P94679); chain MFIRNCWYVAAWDTEIPAEGLFHRTLLNEPVLLYRDTQGRVVALENRCCHRSAPLHIGRQEGDCVRCLYHGLKFNPSGACVEIPGQEQIPPKTCIKSYPVVERNRLVWIWMGDPARANPDDIVDYFWHDSPEWRMKPGYIHYQANYKLIVDNLLDFTHLAWVHPTTLGTDSAASLKPVIERDTTGTGKLTITRWYLNDDMSNLHKGVAKFEGKADAWQIIQWSPPALLRNDIGVAPTGTGAPEGRRVPEAVQSRGTHIQTPETETTSHYWFCQARNFDLDDEALTEKIYQGVVVAFEEDRTMIEAHEKILSQVPDRPMVPIAADAGLNQGRWLLDRLLKAENGGTAP
UniProt Q9SKC5, sequence (whole entry, looked up): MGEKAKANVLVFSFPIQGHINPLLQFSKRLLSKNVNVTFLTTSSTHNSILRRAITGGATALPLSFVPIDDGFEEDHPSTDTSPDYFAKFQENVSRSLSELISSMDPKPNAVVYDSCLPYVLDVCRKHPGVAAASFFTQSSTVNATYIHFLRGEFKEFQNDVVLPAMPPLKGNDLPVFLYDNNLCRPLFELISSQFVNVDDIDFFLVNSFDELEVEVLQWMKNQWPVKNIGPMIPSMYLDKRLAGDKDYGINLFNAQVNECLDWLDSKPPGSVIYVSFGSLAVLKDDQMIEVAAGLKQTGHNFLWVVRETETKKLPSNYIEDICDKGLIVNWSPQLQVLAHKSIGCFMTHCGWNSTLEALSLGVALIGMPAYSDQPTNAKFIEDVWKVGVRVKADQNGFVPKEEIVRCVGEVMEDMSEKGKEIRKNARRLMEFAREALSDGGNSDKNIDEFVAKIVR

B1 (ycjQ)  kcat/Km (CO[C@H]1O[C@H](CO)[C@H](O)C(=O)[C@H]1O; pH 7, 30 °C, added: NADH 0.3 mM, MnCl2 0.5 mM): 2000 ± 290 M⁻¹ s⁻¹
B2 (enzyme)  kcat/Km (O=C1[C@@H](O[C@@H]2O[C@H](CO)[C@@H](O)[C@H](O)[C@H]2O)Oc2ccccc2N1O; pH 7.2, 30 °C): 6860 M⁻¹ s⁻¹
B3 (GTPBP3 N259A)  kcat/Km (Nc1nc2c(ncn2[C@@H]2O[C@H](COP(=O)(O)OP(=O)(O)OP(=O)(O)O)[C@@H](O)[C@H]2O)c(=O)[nH]1; pH 8, 37 °C, KCl 300 mM): 108 M⁻¹ s⁻¹
Ptb (Listeria monocytogenes, UniProt Q8Y7B7)  kcat/Km (CCCCCC(=O)SCCNC(=O)CCNC(=O)[C@H](O)C(C)(C)COP(=O)(O)OP(=O)(O)OC[C@H]1O[C@@H](n2cnc3c(N)ncnc32)[C@H](O)[C@@H]1OP(=O)(O)O; pH 7.5, 25 °C, apparent, poor fit): 1.7e+06 M⁻¹ s⁻¹
HCT (Coleus scutellarioides, UniProt E8ZAP2)  kcat/Km (O=C(O)C1=C[C@@H](O)[C@@H](O)[C@H](O)C1; pH 8, pseudo-first-order, added: p-coumaroyl CoA): 77500 ± 6290 M⁻¹ s⁻¹
B4 (enzyme)  kcat/Km (O=c1ccn([C@@H]2O[C@H](CO[P@@](=O)(O)O[P@@](=O)(O)O[C@H]3O[C@H](CO)[C@@H](O)[C@H](O)[C@H]3O)[C@@H](O)[C@H]2O)c(=O)[nH]1; pH 7.5, 25 °C): 2210 M⁻¹ s⁻¹
B5 (enzyme P89H)  kcat/Km (NC(=O)c1ccc[n+](CCO)c1; pH 8, 25 °C): 2.4 ± 0.44 M⁻¹ s⁻¹
B6 (pol D141A/E143A)  kcat/Km (Nc1nc2c(ncn2[C@H]2C[C@H](O)[C@@H](COP(=O)(O)OP(=O)(O)OP(=O)(O)O)O2)c(=O)[nH]1; pH 8, 55 °C): 1.5e+06 ± 100000 M⁻¹ s⁻¹
protein (Stereum hirsutum, UniProt P9WEW0)  kcat/Km (CC(C)=CCC/C(C)=C/CC/C(C)=C/CO[P@@](=O)(O)OP(=O)(O)O; pH 8, NaCl 200 mM, added: FPP 1–100 µM): 889 ± 70 M⁻¹ s⁻¹
alanine aminopeptidase (Neisseria meningitidis, UniProt Q9JYV4)  kcat/Km (N=C(NCCC[C@H](N)C(=O)Nc1ccc2c(CC(N)=O)cc(=O)oc2c1)N[N+](=O)[O-]; pH 7.5, 37 °C): 120000 ± 2000 M⁻¹ s⁻¹
B7 (enzyme)  kcat/Km (N=C(N)NCCC[C@H](N)C(=O)O; pH 8, 37 °C): < 0.0172 M⁻¹ s⁻¹
UGT74D1 (Arabidopsis thaliana, UniProt Q9SKC5)  kcat/Km (O=C(O)Cc1c[nH]c2ccccc12; pH 7.5, 30 °C): 9170 M⁻¹ s⁻¹
B8 (protein)  kcat/Km (COc1cc(-c2oc3cc(O)cc(O)c3c(=O)c2O)ccc1O; pH 7.5, 35 °C, apparent, added: UDP-glucose): 7.85 M⁻¹ s⁻¹
enzyme (UniProt A0A7J5BGR1)  kcat/Km (COc1cc(CN)ccc1O; pH 8, 25 °C): 50 M⁻¹ s⁻¹
B9 (cyc1 V329A)  kcat/Km (CC(C)=CCC/C(C)=C/CC/C(C)=C/CO[P@@](=O)(O)OP(=O)(O)O; pH 6.5, 30 °C, added: MgCl2 10 mM): 270000 ± 50000 M⁻¹ s⁻¹
B10  kcat/Km (COc1cc(C(=O)O)ccc1O; apparent, added: NADH 1 mM): 3200 ± 260 M⁻¹ s⁻¹

For quick reference, copied from above:
HCT (Coleus scutellarioides, UniProt E8ZAP2)  kcat/Km (O=C(O)C1=C[C@@H](O)[C@@H](O)[C@H](O)C1; pH 8, pseudo-first-order, added: p-coumaroyl CoA): 77500 ± 6290 M⁻¹ s⁻¹
alanine aminopeptidase (Neisseria meningitidis, UniProt Q9JYV4)  kcat/Km (N=C(NCCC[C@H](N)C(=O)Nc1ccc2c(CC(N)=O)cc(=O)oc2c1)N[N+](=O)[O-]; pH 7.5, 37 °C): 120000 ± 2000 M⁻¹ s⁻¹
